Measurements collected from several papers.
± marks the error that the study gave. Converted amounts (≈) assume the structure as drawn.
Sequence of UniProt P01556 (whole entry, looked up): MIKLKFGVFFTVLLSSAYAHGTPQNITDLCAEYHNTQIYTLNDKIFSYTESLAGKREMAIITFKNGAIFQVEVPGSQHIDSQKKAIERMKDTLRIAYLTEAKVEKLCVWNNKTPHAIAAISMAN
Sequence of UniProt Q07001 (whole entry, looked up): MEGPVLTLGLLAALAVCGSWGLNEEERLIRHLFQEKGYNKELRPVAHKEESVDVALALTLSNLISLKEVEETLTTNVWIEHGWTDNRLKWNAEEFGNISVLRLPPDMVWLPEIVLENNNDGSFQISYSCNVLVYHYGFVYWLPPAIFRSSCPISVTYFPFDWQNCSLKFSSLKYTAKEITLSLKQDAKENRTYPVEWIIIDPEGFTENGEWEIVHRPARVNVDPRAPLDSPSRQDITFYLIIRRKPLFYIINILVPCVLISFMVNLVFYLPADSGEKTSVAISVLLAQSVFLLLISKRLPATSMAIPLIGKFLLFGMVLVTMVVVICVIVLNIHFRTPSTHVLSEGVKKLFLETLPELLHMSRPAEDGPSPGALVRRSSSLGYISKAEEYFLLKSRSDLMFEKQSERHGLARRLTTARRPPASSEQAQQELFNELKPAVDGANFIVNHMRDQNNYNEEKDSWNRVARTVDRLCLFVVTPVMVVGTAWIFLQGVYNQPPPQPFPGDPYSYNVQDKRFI
Sequence of UniProt P35372 (whole entry, looked up): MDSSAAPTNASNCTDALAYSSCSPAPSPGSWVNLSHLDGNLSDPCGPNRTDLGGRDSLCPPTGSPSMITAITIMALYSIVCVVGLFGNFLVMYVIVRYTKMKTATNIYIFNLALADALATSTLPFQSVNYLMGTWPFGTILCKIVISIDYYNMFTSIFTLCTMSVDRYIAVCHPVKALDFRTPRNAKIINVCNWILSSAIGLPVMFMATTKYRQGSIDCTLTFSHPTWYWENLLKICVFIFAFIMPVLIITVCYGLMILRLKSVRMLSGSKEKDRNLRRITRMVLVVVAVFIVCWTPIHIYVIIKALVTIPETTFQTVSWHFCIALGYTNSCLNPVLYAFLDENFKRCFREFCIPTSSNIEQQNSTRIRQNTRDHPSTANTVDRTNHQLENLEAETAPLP
Sequence of UniProt P07510 (whole entry, looked up): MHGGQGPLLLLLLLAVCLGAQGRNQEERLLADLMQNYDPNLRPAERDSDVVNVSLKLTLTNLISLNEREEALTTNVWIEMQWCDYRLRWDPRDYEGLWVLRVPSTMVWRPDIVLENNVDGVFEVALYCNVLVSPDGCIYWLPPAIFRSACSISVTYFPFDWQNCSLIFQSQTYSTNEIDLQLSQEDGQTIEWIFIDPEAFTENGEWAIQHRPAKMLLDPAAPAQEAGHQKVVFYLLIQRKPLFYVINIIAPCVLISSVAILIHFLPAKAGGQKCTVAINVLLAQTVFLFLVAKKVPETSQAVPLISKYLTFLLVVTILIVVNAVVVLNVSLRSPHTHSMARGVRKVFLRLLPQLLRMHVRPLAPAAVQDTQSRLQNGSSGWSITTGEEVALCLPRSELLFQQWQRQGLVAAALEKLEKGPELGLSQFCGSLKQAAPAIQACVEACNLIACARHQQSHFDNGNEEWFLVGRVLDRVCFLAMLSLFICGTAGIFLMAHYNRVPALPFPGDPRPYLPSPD
Sequence of UniProt Q16762 (whole entry, looked up): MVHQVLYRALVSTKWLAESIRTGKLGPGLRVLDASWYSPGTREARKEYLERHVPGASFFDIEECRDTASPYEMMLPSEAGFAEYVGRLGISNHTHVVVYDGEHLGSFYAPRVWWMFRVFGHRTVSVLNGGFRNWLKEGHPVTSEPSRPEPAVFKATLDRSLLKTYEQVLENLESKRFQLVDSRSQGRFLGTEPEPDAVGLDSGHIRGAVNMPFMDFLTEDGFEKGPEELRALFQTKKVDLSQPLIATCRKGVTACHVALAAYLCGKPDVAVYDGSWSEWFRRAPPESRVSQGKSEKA
Sequence of UniProt P02708 (whole entry, looked up): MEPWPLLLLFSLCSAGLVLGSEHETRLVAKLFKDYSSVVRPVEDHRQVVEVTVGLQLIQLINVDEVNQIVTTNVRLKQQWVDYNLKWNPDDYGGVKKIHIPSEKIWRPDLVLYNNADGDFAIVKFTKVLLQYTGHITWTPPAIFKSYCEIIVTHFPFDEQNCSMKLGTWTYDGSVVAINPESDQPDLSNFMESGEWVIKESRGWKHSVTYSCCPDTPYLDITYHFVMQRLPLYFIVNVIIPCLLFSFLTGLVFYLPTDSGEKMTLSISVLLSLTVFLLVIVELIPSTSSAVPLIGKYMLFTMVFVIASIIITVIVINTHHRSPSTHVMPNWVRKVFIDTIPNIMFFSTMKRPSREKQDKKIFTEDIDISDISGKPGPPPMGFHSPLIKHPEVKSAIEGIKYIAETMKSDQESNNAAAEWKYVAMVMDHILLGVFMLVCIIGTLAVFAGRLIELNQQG
Sequence of UniProt Q9Y5Y9 (whole entry, looked up): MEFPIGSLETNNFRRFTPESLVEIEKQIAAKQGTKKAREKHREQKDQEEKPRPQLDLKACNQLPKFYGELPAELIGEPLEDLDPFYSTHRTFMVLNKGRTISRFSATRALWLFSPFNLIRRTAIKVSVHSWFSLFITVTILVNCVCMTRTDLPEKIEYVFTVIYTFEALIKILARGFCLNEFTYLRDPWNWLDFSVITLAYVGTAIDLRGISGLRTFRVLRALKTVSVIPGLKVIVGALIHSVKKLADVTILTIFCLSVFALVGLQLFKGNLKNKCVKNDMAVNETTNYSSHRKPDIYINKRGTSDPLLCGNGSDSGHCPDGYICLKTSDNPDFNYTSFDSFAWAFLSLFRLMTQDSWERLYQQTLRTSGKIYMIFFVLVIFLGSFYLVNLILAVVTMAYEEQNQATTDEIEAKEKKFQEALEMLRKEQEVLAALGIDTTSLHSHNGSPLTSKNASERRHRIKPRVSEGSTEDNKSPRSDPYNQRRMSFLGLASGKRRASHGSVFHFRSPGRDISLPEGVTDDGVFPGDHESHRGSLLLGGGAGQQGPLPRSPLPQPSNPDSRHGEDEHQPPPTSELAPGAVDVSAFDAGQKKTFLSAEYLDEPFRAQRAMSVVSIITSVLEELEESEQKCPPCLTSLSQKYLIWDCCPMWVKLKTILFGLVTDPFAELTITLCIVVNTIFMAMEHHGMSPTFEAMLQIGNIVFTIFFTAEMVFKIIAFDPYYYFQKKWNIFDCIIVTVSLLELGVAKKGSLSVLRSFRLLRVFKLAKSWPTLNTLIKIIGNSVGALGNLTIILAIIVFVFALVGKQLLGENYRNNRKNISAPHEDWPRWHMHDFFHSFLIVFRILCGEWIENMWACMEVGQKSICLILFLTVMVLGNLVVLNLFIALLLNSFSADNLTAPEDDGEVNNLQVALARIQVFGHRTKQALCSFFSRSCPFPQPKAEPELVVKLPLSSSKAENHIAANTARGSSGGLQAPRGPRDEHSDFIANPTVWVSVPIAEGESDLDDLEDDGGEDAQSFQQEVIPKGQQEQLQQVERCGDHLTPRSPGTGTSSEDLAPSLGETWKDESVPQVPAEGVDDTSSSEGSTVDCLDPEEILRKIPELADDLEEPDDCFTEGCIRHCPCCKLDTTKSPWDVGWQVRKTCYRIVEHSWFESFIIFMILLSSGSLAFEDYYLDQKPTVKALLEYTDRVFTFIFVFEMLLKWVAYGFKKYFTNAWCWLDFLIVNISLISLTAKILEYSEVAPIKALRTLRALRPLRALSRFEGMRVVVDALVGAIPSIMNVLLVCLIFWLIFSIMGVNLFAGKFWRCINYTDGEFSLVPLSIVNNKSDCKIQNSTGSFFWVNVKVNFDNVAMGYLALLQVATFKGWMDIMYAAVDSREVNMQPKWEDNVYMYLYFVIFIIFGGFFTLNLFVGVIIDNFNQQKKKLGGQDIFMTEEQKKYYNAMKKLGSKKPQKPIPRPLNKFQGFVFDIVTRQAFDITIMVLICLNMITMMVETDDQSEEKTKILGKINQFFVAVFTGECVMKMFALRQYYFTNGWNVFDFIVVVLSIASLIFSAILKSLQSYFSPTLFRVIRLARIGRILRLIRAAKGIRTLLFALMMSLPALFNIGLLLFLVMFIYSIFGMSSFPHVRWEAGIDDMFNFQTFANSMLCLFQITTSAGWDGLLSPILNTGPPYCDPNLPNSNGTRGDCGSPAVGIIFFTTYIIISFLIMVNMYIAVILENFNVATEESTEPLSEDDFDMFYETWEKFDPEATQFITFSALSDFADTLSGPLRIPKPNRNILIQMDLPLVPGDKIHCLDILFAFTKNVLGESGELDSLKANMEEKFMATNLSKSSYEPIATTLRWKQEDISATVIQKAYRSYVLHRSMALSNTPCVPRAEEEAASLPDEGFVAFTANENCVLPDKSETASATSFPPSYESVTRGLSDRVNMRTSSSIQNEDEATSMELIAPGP

| SMILES | tested on | test | system | setting | how to read | measurement | result |
| --- | --- | --- | --- | --- | --- | --- | --- |
| CC(=O)NCC(=O)N[C@@H](C)C(=O)N[C@@H](CCC(=O)O)C(=O)N[C@@H](C)C(=O)N[C@@H](CCC(=O)O)C(=O)N1CCC[C@H]1C(=O)N[C@@H](CCC(=O)O)C(=O)NCC(=O)N[C@@H](C)C(=O)N[C@@H](CCC(=O)O)C(=O)N[C@@H](C)C(=O)N[C@@H](CCC(=O)O)C(=O)N1CCC[C@H]1C(=O)N[C@@H](CCC(=O)O)C(=O)NCC(=O)N[C@@H](C)C(=O)N[C@@H](CCC(=O)O)C(=O)N[C@@H](C)C(=O)N[C@@H](CCC(=O)O)C(=O)N1CCC[C@H]1C(=O)N[C@@H](CCC(=O)O)C(=O)NCC(=O)N[C@@H](C)C(=O)N[C@@H](CCC(=O)O)C(=O)N[C@@H](C)C(=O)N[C@@H](CCC(=O)O)C(=O)N1CCC[C@H]1C(=O)N[C@@H](CCC(=O)O)C(=O)NCC(=O)N[C@@H](C)C(=O)N[C@@H](CCC(=O)O)C(=O)N[C@@H](C)C(=O)N[C@@H](CCC(=O)O)C(=O)N1CCC[C@H]1C(=O)N[C@@H](Cc1cn([C@@H]2O[C@H](CO)[C@H](O)[C@H](O)[C@H]2O)nn1)C(=O)NCC(=O)NCC(=O)NCC(=O)NCC(N)=O | ctxB, pentamer (Vibrio cholerae, UniProt P01556) | – | – | concentration not given | baseline: galactose | inhibition potency | 100 fold |
| CC(=O)NCCOCCOCCOCCn1cc(CNC(=O)c2cc(O[C@H]3O[C@H](CO)[C@H](O)[C@H](O)[C@H]3O)cc([N+](=O)[O-])c2)nn1 | ctxB (Vibrio cholerae, UniProt P01556) | binding | – | – | baseline: galactose | relative potency | 27 fold |
| CC(C)C[C@H](NC(=O)CNC(=O)[C@H](Cc1ccccc1)NC(=O)[C@@H](NC(=O)[C@@H](N)[C@@H](C)O)C(C)C)C(=O)N[C@@H](CC(N)=O)C(=O)N[C@H](C(=O)N[C@@H](Cc1c[nH]c2ccccc12)C(=O)N[C@@H](CCCCN)C(=O)N[C@@H](CCCNC(=N)N)C(=O)N[C@@H](Cc1ccc(O)cc1)C(=O)N[C@@H](CO)C(=O)N[C@@H](CCCCN)C(=O)NCC(=O)N[C@@H](CCCCNc1ccc([N+](=O)[O-])cc1[N+](=O)[O-])C(N)=O)C(C)C | Spike glycoprotein, RBD (Severe acute respiratory syndrome coronavirus 2, UniProt P0DTC2) | binding | – | – | – | kon | 22400 to 24400 M⁻¹ s⁻¹ |
| CC[C@H](C)[C@H](NC(=O)[C@H](CCCCN)NC(=O)[C@H](CCCCN)NC(=O)[C@H](CC(C)C)NC(=O)[C@H](Cc1c[nH]c2ccccc12)NC(=O)CN)C(=O)NCC(=O)N[C@@H](CCCCN)C(=O)N[C@@H](CCCCN)C(=O)N[C@H](C(=O)N[C@@H](CCC(=O)O)C(=O)N[C@@H](CCCNC(=N)N)C(=O)N[C@H](C(=O)NCC(=O)N[C@@H](CCC(N)=O)C(=O)N[C@@H](Cc1c[nH]cn1)C(=O)N[C@H](C(=O)N[C@@H](CCCNC(=N)N)C(=O)N[C@@H](CC(=O)O)C(=O)N[C@@H](C)C(=O)N[C@H](C(=O)N[C@H](C(=O)N[C@@H](CCC(N)=O)C(=O)N[C@H](C(=O)N[C@H](C(=O)NCC(=O)N[C@H](C(=O)N[C@@H](C)C(=O)N[C@@H](CCC(N)=O)C(=O)N[C@@H](CCC(N)=O)C(=O)N[C@@H](C)C(=O)N[C@@H](C)C(=O)N[C@@H](CC(N)=O)C(=O)N[C@H](C(=O)N[C@@H](C)C(=O)N[C@@H](C)C(=O)N[C@H](C(=O)N[C@@H](CC(C)C)C(=O)N[C@@H](CCCCN)C(N)=O)[C@@H](C)O)C(C)C)C(C)C)[C@@H](C)CC)[C@@H](C)O)[C@@H](C)CC)[C@@H](C)O)[C@@H](C)O)C(C)C)[C@@H](C)CC | Acinetobacter baumannii | – | ATCC 19606, CAMHB with 10% mouse serum | 150 mM NaCl | – | MIC | 1 µg/mL (≈ 0.238 µM) |
| CC(C)C[C@H](NC(=O)[C@H](CO[C@@H]1O[C@H](CO)[C@@H](O[C@@H]2O[C@H](CO)[C@H](O)[C@H](O)[C@H]2O)[C@H](O)[C@H]1O)NC(=O)[C@H](CCCCN)NC(=O)[C@H](CC(C)C)NC(=O)C(C)(C)NC(=O)[C@H](CCCCN)NC(=O)[C@H](CCC(=O)O)NC(=O)C(C)(C)NC(=O)[C@H](CC(C)C)NC(=O)[C@H](CC(N)=O)NC(=O)[C@@H]1CCCN1C(=O)[C@H](CC(C)C)NC(=O)[C@H](Cc1ccccc1)NC(=O)CNC(=O)[C@H](NC(=O)[C@@H](N)Cc1ccc(O)cc1)[C@H](C)O)C(N)=O | Mu-type opioid receptor (OPRM1, Homo sapiens, UniProt P35372) | radioligand displacement | CHO membranes | 60 min, pH 7.5, 25 °C, with: 0.25 nM [3H]DAMGO | – | Ki | 21 ± 0.9 nM |
| COc1ccc(/C=N/NC(=O)C(C)(C)Oc2ccc(Cl)cc2)c(C(=O)O)c1OC | uncharacterized protein (Candidatus Liberibacter solanacearum, UniProt A0A094YYW1) | – | – | – | – | koff | 0.00147 s⁻¹ |
| CNC(C)C1C(O)CC2(C)C3CCC4C(C)(C)C(NC)CCC45CC35CCC12C (stereo not shown) | Spike glycoprotein (Severe acute respiratory syndrome coronavirus 2, UniProt P0DTC2) | binding | – | – | – | kon | 626 M⁻¹ s⁻¹ |
| CCCCCCCCCCCCCCCC(=O)N[C@@H](CCC(=O)NCCOCCOCCC(=O)NCCOCCOCCC(=O)NCCCC[C@H](NC(=O)[C@H](CC(=O)O)NC(=O)[C@H](CC(C)C)NC(=O)[C@H](Cc1ccc(O)cc1)NC(=O)[C@H](CCCCN)NC(=O)[C@H](CO)NC(=O)[C@H](Cc1ccc(O)cc1)NC(=O)[C@H](CC(=O)O)NC(=O)[C@H](CO)NC(=O)[C@@H](NC(=O)[C@H](Cc1ccccc1)NC(=O)[C@@H](NC(=O)CNC(=O)[C@H](CCC(N)=O)NC(=O)[C@@H](CO)NC(=O)[C@@H](N)Cc1c[nH]cn1)[C@@H](C)O)[C@@H](C)O)C(=O)N[C@@H](CCCNC(=N)N)C(=O)N[C@@H](CCCNC(=N)N)C(=O)N[C@@H](C)C(=O)N[C@@H](CCC(N)=O)C(=O)N[C@@H](CC(=O)O)C(=O)N[C@@H](Cc1ccccc1)C(=O)N[C@H](C(=O)N[C@@H](CCC(N)=O)C(=O)N[C@@H](Cc1c[nH]c2ccccc12)C(=O)N[C@@H](CC(C)C)C(=O)N[C@@H](CC(C)C)C(=O)N[C@@H](CC(N)=O)C(=O)N[C@H](C(=O)NCC(=O)NCC(=O)N1CCC[C@H]1C(=O)N[C@@H](CO)C(=O)N[C@@H](CO)C(=O)NCC(=O)N[C@@H](C)C(=O)N1CCC[C@H]1C(=O)N1CCC[C@H]1C(=O)N1CCC[C@H]1C(=O)N[C@@H](CO)C(N)=O)[C@@H](C)O)C(C)C)C(=O)O | – | item: CK | rhesus monkey, male | subcutaneous, 60 µg/kg once daily, 28 days | – | serum enzyme activity | 129 ± 47 U/L |
| CC(C)C[C@H](NC(=O)OCc1ccccc1)C(=O)N[C@@H](C[C@@H]1CCNC1=O)C(O)S(=O)(=O)O (stereo partly shown) | Replicase polyprotein 1ab, main protease (rep, Middle East respiratory syndrome-related coronavirus, UniProt K9N7C7) | thermal stability | – | – | – | ΔTm | 17.2 °C |
| C[C@H](NCc1ccc(-c2ccc(C(F)(F)F)cc2)cc1)C(N)=O | CHRNA1/CHRNG/CHRND (Homo sapiens, UniProt P02708+P07510+Q07001) | binding | biochemical | 1 µM | – | inhibition | -5% |
| CC(C)C[C@@H]1NC(=O)[C@H](CCCNC(=N)N)NC(=O)[C@@H]2CCCN2C(=O)[C@@H]2CSSC[C@H](NC(=O)CNC(=O)[C@@H]3CCCN3C(=O)[C@H](CCCCN)NC(=O)[C@H](CC(=O)O)NC(=O)[C@@H](NC(=O)CN)C(C)C)C(=O)N[C@@H](CCCNC(=N)N)C(=O)N[C@@H](Cc3ccc(O)cc3)C(=O)N[C@@H](CC(C)C)C(=O)N[C@@H](Cc3ccccc3)C(=O)NCC(=O)NCC(=O)N[C@H]3CSSC[C@H](NC(=O)CNC1=O)C(=O)N[C@@H](CCCCN)C(=O)NCC(=O)N[C@@H](CCCCN)C(=O)NCC(=O)N[C@@H](Cc1c[nH]cn1)C(=O)N[C@@H](CC(=O)O)C(=O)N[C@@H](Cc1ccc(O)cc1)C(=O)N[C@H](C(=O)N[C@@H](C)C(=O)N[C@@H](Cc1c[nH]c4ccccc14)C(=O)N[C@@H](CC(=O)O)C(=O)NCC(=O)N[C@H](C(=O)N[C@@H](Cc1ccccc1)C(=O)N[C@@H](CO)C(=O)N[C@@H](CC(=O)O)C(=O)O)[C@@H](C)O)CSSC[C@H](NC(=O)[C@H](CC(=O)O)NC(=O)[C@H](CC(=O)O)NC(=O)[C@H](CC(=O)O)NC(=O)[C@H](CO)NC(=O)[C@H](CCCCN)NC3=O)C(=O)N2 | Sodium channel protein type 10 subunit alpha (SCN10A, Homo sapiens, UniProt Q9Y5Y9) | channel current enhancement, activator | – | – | – | Hill slope | 1.5 ± 0.1 |
| O=C1SCCC1NC(C(=O)NCc1ccccc1)C1CC1 (stereo not shown) | Thiosulfate sulfurtransferase (TST, Homo sapiens, UniProt Q16762) | activator, item: potassium cyanide | – | 17.1 µM, with: sodium thiosulfate 60 mM | – | Km | 5.2 ± 0.98 mM |
| CC[C@H](C)C(=O)N1CCC(NC(=O)Nc2ccc(OC(F)(F)F)c(F)c2)CC1 | – | – | healthy volunteers | oral, 0.5 mg single dose | – | subjects with COVID-19 TEAE | 0% |

Repeated from above:
| SMILES | tested on | test | system | setting | how to read | measurement | result |
| --- | --- | --- | --- | --- | --- | --- | --- |
| CNC(C)C1C(O)CC2(C)C3CCC4C(C)(C)C(NC)CCC45CC35CCC12C (stereo not shown) | Spike glycoprotein (Severe acute respiratory syndrome coronavirus 2, UniProt P0DTC2) | binding | – | – | – | kon | 626 M⁻¹ s⁻¹ |
| COc1ccc(/C=N/NC(=O)C(C)(C)Oc2ccc(Cl)cc2)c(C(=O)O)c1OC | uncharacterized protein (Candidatus Liberibacter solanacearum, UniProt A0A094YYW1) | – | – | – | – | koff | 0.00147 s⁻¹ |
